Measurements of several laboratories.
A part holds a random share of what one study measured. Positions count from the first letter of the parent shown.

Set 1
Target: CCNB3, cyclin fold, Cln2 fusion (human)
Technique: yeast growth competition, sequencing
Matrix: yeast
Setting: weak parent motif
Baseline: not given
Reading: higher = stronger binding
Starting sequence: KIF20B docking peptide (human); KRAKRKLYTSEIS; partner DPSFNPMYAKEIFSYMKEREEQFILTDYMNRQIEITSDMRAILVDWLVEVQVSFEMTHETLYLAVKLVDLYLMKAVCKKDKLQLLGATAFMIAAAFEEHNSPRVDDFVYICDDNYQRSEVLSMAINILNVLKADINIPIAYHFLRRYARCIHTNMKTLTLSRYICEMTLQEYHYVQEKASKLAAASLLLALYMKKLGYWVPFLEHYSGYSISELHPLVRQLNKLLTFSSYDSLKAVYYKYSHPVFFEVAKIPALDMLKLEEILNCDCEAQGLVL
For `Y8A`, “normalised enrichment score” read -0.253.
Under “normalised enrichment score”, `L7A` is recorded as 0.119.
For `R5A`, “normalised enrichment score” read -0.435.
Under “normalised enrichment score”, `I12A` is recorded as 0.36.
`S10A` — result for “normalised enrichment score”: -0.31.
`E11A`: “normalised enrichment score” 0.284.

Set 2
Target: RING finger protein unkempt homolog, zinc fingers 1-6, GST-SBP tag (UNK, Homo sapiens, UniProt Q9C0B0, residues 30-357)
Sequence of UniProt Q9C0B0 (30-357, looked up): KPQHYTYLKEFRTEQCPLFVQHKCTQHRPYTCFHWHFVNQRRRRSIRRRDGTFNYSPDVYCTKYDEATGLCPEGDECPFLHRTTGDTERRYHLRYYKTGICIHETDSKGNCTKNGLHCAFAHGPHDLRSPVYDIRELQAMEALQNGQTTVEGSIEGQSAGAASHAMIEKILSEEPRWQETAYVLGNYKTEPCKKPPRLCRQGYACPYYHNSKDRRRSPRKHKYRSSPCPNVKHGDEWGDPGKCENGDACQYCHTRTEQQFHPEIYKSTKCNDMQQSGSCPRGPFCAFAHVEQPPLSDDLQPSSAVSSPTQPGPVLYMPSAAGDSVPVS
Technique: RNA Bind-n-Seq
Form: RNA
Matrix: in vitro
Concentration: not given
Setting: RNA with constant flanks, human and mouse sites, ends assumed
Baseline: input RNA pool
Reading: higher = stronger binding
For `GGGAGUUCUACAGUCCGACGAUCUACUUCUGGAUUCCAGGAAAAAUUCUUAUAACUAAAAUCAAUAUGUUUUAAAAGUCACCAUAUAGCUUCUUACUAGUUAUCUUUUAAAGACUGUGGUGGUCUUAAAAGGGAACAAAAGCUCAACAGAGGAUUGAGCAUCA`, the bound/input enrichment was 3.19 ratio.
With `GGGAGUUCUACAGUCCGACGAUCCCUGCCACUGUCGAGCAGCAGGAGCAUUGGUUUGAAAAGGCCCUACGAGACAAGAAGGGCUUCAUCAUCAAGCAGAUGAAGGAGGAUGGCGCCUGUCUCUUCCGGGCUGUAGCUGACCAGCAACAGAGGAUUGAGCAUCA` the bound/input enrichment was 0.0694 ratio.
`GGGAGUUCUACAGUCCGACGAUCAUUGUCAGAUUUUGUGCUUGAUUUUAAGAAUGGAAUUGUGGGUAUCUUUCCUUUUUUUUUAAUGUAUCUUAACUGUUGCCUGUCAGUGUUUACAAACUAGUGCGUUGACGGCACCGUGUCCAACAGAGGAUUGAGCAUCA` has a bound/input enrichment of 0.356 ratio.
`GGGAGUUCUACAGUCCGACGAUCUCAUUGACCACCAUGAUAAUACCUACACAGUCAAGUACAUUCCUGUGCAGCAGGGCCCAGUAGGUGUCAAUGUCACUUAUGGAGGAGAUCACAUCCCCAAGAGUCCAUUUUCAGUGGGAGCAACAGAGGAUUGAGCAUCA` gave a bound/input enrichment of 0.119 ratio.
`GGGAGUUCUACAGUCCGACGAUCAAUCCUUUCACUUGUCACUCGUGCCCCCUCCCCCAGGCCUCUUUCCCCACCUCAAGUCUGCUCUCUGUCUUCCCUCCCCUCCCUACAUUCCUAAGCCCUCUCAUCCCUCUAUCCCGAGGACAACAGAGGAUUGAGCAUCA` has a bound/input enrichment of 1.17 ratio.
The bound/input enrichment of `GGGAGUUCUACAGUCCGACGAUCACCCAACCAGCAGAAAACCGGUCUCUGAGGUUCCACCAAAAUAUGGAACUUGAUUUUGGACACUUUGACGAAAGAGAUAAGACAUCCAGGAACAUGCGAGGCUCCCGGAUGAAUGGGUUGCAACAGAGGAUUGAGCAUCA` is reported as 0.261 ratio.
`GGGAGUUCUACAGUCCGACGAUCCUUCUGGAGAAGUUGUACAAGGUAAAUCUUAAGGUGAAGCAUGUGGAAUACGAUAAGUUUUAUAUCCCUGAGAUUUCUAGUCUUGUGGACAUUCAGGAAGACUACCUCAUGUGGUUUUUGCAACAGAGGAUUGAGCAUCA` gave a bound/input enrichment of 0.183 ratio.
`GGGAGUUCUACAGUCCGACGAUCUAAUAAAACCAUUUUAUCUUUAAAAUAGUAAGUAGAAAUCUAAAUAAAUUUUAUGAGUAGGCAGUAACUUUUCUGUUUAGUGAGUGUACUUGCUUUGCUCUUAUCAUUGGUCUUACCUUUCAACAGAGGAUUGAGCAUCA` gave a bound/input enrichment of 5.43 ratio.
The bound/input enrichment of `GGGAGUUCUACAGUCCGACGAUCUUCUUCACUCCGUAUGUAUAUCCAGCCACGUGGCCCGAGGACAACAUCAUCCGACAAACUAUUAGCCUCCUGAUUGUCACAAACCUGGGUGCUUACAUUCUCUACUUCUUCUGUGCAACCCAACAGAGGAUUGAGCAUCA` is reported as 0.461 ratio.
For `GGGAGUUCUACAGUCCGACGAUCUAUAAGAUUAAGGUUUGGAAUUACAAACUUCGGCGCUGCCUGUUCACAUUGCUCGGGCACUUGGAUUAUAUCCGUACAACGUUUUUCCAUCAUGAAUAUCCUUGGAUUCUGAGCGCCUCACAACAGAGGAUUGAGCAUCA`, the bound/input enrichment was 0.15 ratio.
For `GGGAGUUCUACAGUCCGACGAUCUGUAGAGCUAAUGUUUACCUUCUUCCGACCGGGAAAAUAGUUUAUUUCAUUGCAUCAGUAGUAGUACUAUUUAAUUAUGAGGAGAGAACUCAGCGACACUACCUGGGCCAUACAGACUGUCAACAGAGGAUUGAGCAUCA`, the bound/input enrichment was 4.5 ratio.

Set 3
Target: Interferon regulatory factor 7, full length, phosphomimetic (IRF7, Homo sapiens, UniProt Q92985, residues 1-503, S471D/S472D/S475D/S476D/S477D/S483D/S484D/S487D)
Technique: protein-binding microarray
Form: double-stranded DNA, one strand shown
Matrix: in vitro
Concentration: 2200 nM top
Setting: 60-bp whole probe
Together with: salmon DNA 0.4 mg/ml
Baseline: random background probes
Reading: higher = stronger binding
All sequences stand within: GCCTAGCAC … GTCTTGATTCGCTTGACGCTGCTG
Target sequence (chain): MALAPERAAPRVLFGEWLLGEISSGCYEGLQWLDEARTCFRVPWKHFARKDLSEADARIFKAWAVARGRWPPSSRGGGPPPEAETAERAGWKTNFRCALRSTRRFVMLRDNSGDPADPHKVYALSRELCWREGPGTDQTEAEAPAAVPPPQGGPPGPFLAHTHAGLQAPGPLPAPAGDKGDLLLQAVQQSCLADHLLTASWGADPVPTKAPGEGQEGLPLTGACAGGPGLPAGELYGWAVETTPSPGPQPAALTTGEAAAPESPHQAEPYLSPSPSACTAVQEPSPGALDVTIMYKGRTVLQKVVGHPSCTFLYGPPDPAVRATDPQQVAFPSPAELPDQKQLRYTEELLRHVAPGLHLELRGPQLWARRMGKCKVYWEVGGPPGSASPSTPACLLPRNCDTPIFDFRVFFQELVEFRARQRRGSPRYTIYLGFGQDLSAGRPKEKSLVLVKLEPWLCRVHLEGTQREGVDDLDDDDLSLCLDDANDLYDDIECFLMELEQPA
Under “fitted relative affinity”, `GACGGTTTCGGTCGCGGGACGTGCTAG` is recorded as 3.71 z-score.
`GACGGTTTCCTTTCCCTTACGTGCTAG` — result for “fitted relative affinity”: 5.25 z-score.
`TTAGGACTGGACACTGGGTTCGTGCTA`: “fitted relative affinity” -0.636 z-score.
Under “fitted relative affinity”, `TCATCATTTTTTTTCATACTGTGCTAG` is recorded as 1.61 z-score.
`AAGGAAGGACCATCCAGAGAGTGCTAG`: “fitted relative affinity” -0.659 z-score.
For `TTCTTAATGCTTCTGGACCAGTGCTAG`, “fitted relative affinity” read 0.23 z-score.
`AAGCAAAAATGATTGGTTGAGTGCTAG` — result for “fitted relative affinity”: -0.622 z-score.
For `TTAGGTTTCGGACCGGGTTAGTGCTAG`, “fitted relative affinity” read 2.03 z-score.
For `TTAGATATCGGGTATCTATTAGTGCTA`, “fitted relative affinity” read 0.355 z-score.
`TCATATTTTTTTCTAATACTGTGCTAG`: “fitted relative affinity” 1.18 z-score.
Under “fitted relative affinity”, `CTCTTCTTGCATCTGGGTATGTGCTAG` is recorded as 1.87 z-score.
`GACGATATCAATTTCGAGACGTGCTAG`: “fitted relative affinity” 1.25 z-score.
For `GACGGTTTCGTCTATCGGGACGTGCTA`, “fitted relative affinity” read 3.12 z-score.
`AGGTTTCTATATTTGCTTCAGTGCTAG`: “fitted relative affinity” 2.71 z-score.
Under “fitted relative affinity”, `TTAGGACTTGGTCTCGGTTAGTGCTAG` is recorded as 0.442 z-score.
`GACGGACTGGGTCACGGGACGTGCTAG` — result for “fitted relative affinity”: -1.19 z-score.
Under “fitted relative affinity”, `TTAGGTATCGGACTCGGTTAGTGCTAG` is recorded as 0.816 z-score.
`TTAGGTATCGGTTTCGGTAAGTGCTAG` — result for “fitted relative affinity”: 3.79 z-score.
`TTAGGACTGCTACTGCTTAAGTGCTAG` — result for “fitted relative affinity”: -0.219 z-score.
For `GGGGCTTGGGAGAGGCATCCGTGCTAG`, “fitted relative affinity” read -1.12 z-score.
Under “fitted relative affinity”, `TCTGTAATTCTTAGAACAGCGTGCTAG` is recorded as -0.24 z-score.
For `TTAGGTATTGGACTGGGTTAGTGCTAG`, “fitted relative affinity” read 0.0191 z-score.
`TTAGGTTCAGGTTTCGGTTAGTGCTAG` — result for “fitted relative affinity”: 5.72 z-score.

Set 4
Target: RNA binding protein fox-1 homolog 2, RRM domain, GST-SBP tag (RBFOX2, Homo sapiens, UniProt O43251-10, residues 100-194)
Technique: RNA Bind-n-Seq
Form: RNA
Matrix: in vitro
Concentration: 365 nM
Setting: natural RNA segment, single round, ends assumed
Baseline: no-protein control
Reading: higher = stronger binding
Residues (chain): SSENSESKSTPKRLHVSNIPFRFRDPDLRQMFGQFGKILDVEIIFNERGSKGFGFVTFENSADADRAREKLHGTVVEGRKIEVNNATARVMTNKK
Under “RBNS enrichment (R)”, `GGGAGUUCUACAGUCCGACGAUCCAGGCUGUGUCCGAGCUGUGUCACAUGCAGCUCUACCCACGCUUUUAAACUCAGGAAUGCACACCUAACUUGUGAAGCAGUAUUAAUGGAUCUGAAAGCAACAAUCGCCAUGGAAUUCUCGGGUGCCAA` is recorded as 0.479.
Under “RBNS enrichment (R)”, `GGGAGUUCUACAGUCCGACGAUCUACUGACAUGAGUGUCCAAUAUAUGGUAUAUUUUUCUAAUAUAAUACUCUGGUAUGAUUGGUUCUGUUGGAAACUGAUUUAGGUGAAUACAGACAUACCAUAGGGGUAAGUGGAAUUCUCGGGUGCCAA` is recorded as 0.407.
`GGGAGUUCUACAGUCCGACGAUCGGCAGGACCUUAUGCUCAGAAAUCUUUGUAUAGUUUUAAAUUUUUGAGGAGUAUCUCUGCUCGGAAGCAUCUGUGGUGGUGUGAUGUGUUGUUCUGUGUACUGUAUGUGAUGGAAUUCUCGGGUGCCAA`: “RBNS enrichment (R)” 2.59.
For `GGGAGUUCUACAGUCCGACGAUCCACAUGUUGGGAAGUAGAUUCAGAAAGAUAGGAGAAAUACCCAGACUCUACCACUUCCGUGAGCUACUAGUUAGGCAUGGGCAGGAUUAAGUUUUAUGUGUAUUAUCUUCUGGAAUUCUCGGGUGCCAA`, “RBNS enrichment (R)” read 0.17.
`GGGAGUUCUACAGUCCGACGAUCACCCCCAAUCUUCUUCUCUAGGUCGCCAAUCCCACAGGCUGUACAGCUCAGUUCCCUAUGUUUAUGCUGUGUUGUUCCCACCUCAGUGCUGUCAGCCUUUGGGACAGUGGUGGAAUUCUCGGGUGCCAA`: “RBNS enrichment (R)” 1.2.
Under “RBNS enrichment (R)”, `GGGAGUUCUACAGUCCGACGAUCCUGCCUCGGCGGUAUCCACAGAAGACAGGCAAGAGGAUUGGAGCAGUUUUCUCACAGGUCUGCAAUUCUGUUUUUCUCCAAGUACAUUAUGACCCCCUCAUCCUUCUCUUUGGAAUUCUCGGGUGCCAA` is recorded as 0.479.
`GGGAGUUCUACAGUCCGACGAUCCCCUUCGAAGGGAAGCCCAAACACUUUGCACGCUGUGCUGCAGACAUUCUGGCCUGGUGUGUCUGAAAGUUGCAUCAGUCCUCACGGUGCAAACACAGUUGAUUUAGGAAUGGAAUUCUCGGGUGCCAA`: “RBNS enrichment (R)” 0.255.
Under “RBNS enrichment (R)”, `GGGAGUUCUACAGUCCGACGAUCGCAGGAGCAGCAGAGCAGCAGCUAGAGACCCCUUUGGCCACACCUUCCAGGCACUGGCCUGAUGCCCCGCCCUGGUGCUCUCCCCAGGCUCCCUCCUCAGCCUCCUGCCCUGGAAUUCUCGGGUGCCAA` is recorded as 0.331.
`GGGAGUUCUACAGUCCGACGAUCGGCAGAGAUGCACUAGAAGACCUUCAUCCUCCCCUUCCUCUGCCCCAAGUCACUACAGUUGGUUCUAUUGAAGCCAGUCUUUAAGAAACCUGGGUUAAAGACACCAGCACUGGAAUUCUCGGGUGCCAA` — result for “RBNS enrichment (R)”: 0.277.
`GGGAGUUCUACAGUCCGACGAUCAAUAGCAAAUAUAUUUUAUAAAGUGAAAAUCCAGUGUGGAGGUAGCAAAGCAUCUAUCUAUUCUGAAUCAUGUUUGGAAAUAAAAUUGCUCCAUCUGGGAAUGUGCUUUCUGGAAUUCUCGGGUGCCAA` — result for “RBNS enrichment (R)”: 1.08.
`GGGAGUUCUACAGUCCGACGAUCCAAGCUAGAGAUUUUCAAAGCUACACUUUUGAGUAAAAACCCUUAUUAAAAGAAAAACAUGAUUAAUUUUUUGUCUAUUCCUUUUUUUGGAGUGGGACAGGCCCUGUGAGUGGAAUUCUCGGGUGCCAA`: “RBNS enrichment (R)” 1.11.
For `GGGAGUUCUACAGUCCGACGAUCUUUACAUGCCUAAAUAUCUGCAGGUUUUCUUACAGGUAAAGCGAAGUGCUUUGAAAAGUUUAGAUUAUACAUGUGUGACAGAUGCGGCAUAUUUGCUCUAUUAACACAGAUGGAAUUCUCGGGUGCCAA`, “RBNS enrichment (R)” read 0.374.
